Assay results from different studies.
Protocols differ between the studies behind these lines. ± gives the spread as reported.
rep main protease: Replicase polyprotein 1ab, main protease (rep, Severe acute respiratory syndrome coronavirus 2, UniProt P0DTD1)
rep nsp14 N7-methyltransferase: Replicase polyprotein 1ab, nsp14 N7-methyltransferase (rep, Severe acute respiratory syndrome coronavirus 2, UniProt P0DTD1)

The inhibition of `CCOC(=O)[C@@H](Cc1ccc(O)c(O)c1)OC(=O)/C=C/c1ccc(O)c(O)c1` is reported as 0.0679% (rep main protease; reporter gene (mKate2), inhibitor; 20 µM).
With `Cc1cc(=O)[nH]cc1C(=O)N1C[C@@]23CCCC[C@@]2(CN(C(=O)C[C@H]2NC(=O)NC2=O)C3)C1` the inhibition was 9.7% (rep main protease; enzyme activity, inhibitor; 5 µM).
With `Cc1nn(-c2ccc(Cl)cc2)c2c1C(c1ccc(Cl)cc1Cl)C(C#N)=C(N)O2` (stereo not drawn) the inhibition was 11.6% (rep main protease; 3CL protease activity; 0.01 µg/mL, 120 min, enzyme 10 ng/mL).
`CC[C@H](C)[C@H](NC(=O)OCc1ccccc1)C(=O)N[C@@H](CCC(=O)OC)C(=O)N[C@H](C(=O)N[C@@H](CC(=O)OC)C(=O)CF)[C@@H](C)O` has an inhibition of 0.194% (rep main protease; reporter gene (mKate2), inhibitor; 20 µM).
For `catechin gallate`, the kinact was 0.0014 min⁻¹ (rep main protease; inactivator).
`CC(C)n1cc(C(=O)NC2CCCc3c2[nH]c2ccccc32)c2ccccc2c1=O` (stereo not drawn) gave a Hill slope of 1.74 ± 0.16 (rep nsp14 N7-methyltransferase; N7-methyltransferase activity, inhibitor, Py-FLINT).
With `CCCc1cc(=O)[nH]c(SCC(=O)Nc2ccc(OC(F)F)cc2)n1` the inhibition was -0.241% (rep main protease; viral replication, mKate2 reporter; SARS-CoV-2; 20 µM).
With `Nc1ncnc2c1ncn2[C@@H]1O[C@H](C[C@@H](N)CC[C@H](N)C(=O)O)[C@@H](O)[C@H]1O` the Hill slope was 1.38 ± 0.05 (rep nsp14 N7-methyltransferase; N7-methyltransferase activity, inhibitor, Py-FLINT).
The inhibition of `Cc1cc(N[C@H]2C[C@H]3CC[C@@H]2N(C(=O)c2cnc4[nH]cc(C)c4c2)C3)nc(-c2cccnc2)n1` is reported as 17.9% (rep main protease; enzyme activity, inhibitor; 5 µM, run 1).
Under “frequency of responding donors”, `KPVETSNSFDVL` is recorded as 33 (AIM; peptide, CD8+ T cells from PBMC, human donors; HLA-B*07:02 restricted, unit not given; relative to: positive over tested donors).
Under HTS outcome, `N[C@@H](CC(=O)N1CCn2c(nnc2C(F)(F)F)C1)Cc1cc(F)c(F)cc1F` is recorded as “inactive” (Replicase polyprotein 1ab, papain-like protease (rep, Severe acute respiratory syndrome coronavirus 2, UniProt P0DTD1); inhibition; 20 µM).
With `Nc1ccc(C(=O)N2CC3(CCC3)C[C@H]2CNC(=O)c2cncc3ccccc23)cc1O` the inhibition was 28.1% (rep main protease; enzyme activity, inhibitor; 5 µM, mean of runs).
For `PRPPLNRNYVFTGYR`, the responding donors was 8% (human CD4 T cells; AIM; peptide).
`O=c1c2ccccc2[se]n1-c1ccccc1` has a Hill slope of 2.5 ± 0.49 (rep nsp14 N7-methyltransferase; N7-methyltransferase activity, inhibitor, Py-FLINT).
`C=C1C(=O)[C@@]23[C@H](O)C[C@@H]4C(C)(C)C(=O)CC[C@@]4(C)[C@@H]2CC[C@@H]1[C@H]3O` gave an inhibition of -6.47% (rep main protease; reporter gene (Gaussia luciferase), inhibitor; 20 µM).
With `O=C(NC[C@@H]1CC2(CCC2)CN1C(=O)c1ccc(F)c(O)c1)c1cncc2ccccc12` the inhibition was 26.4% (rep main protease; enzyme activity, inhibitor; 5 µM, run 1).
`Cc1cc(C)c(/C=C2/C(=O)Nc3ccc(Cl)cc32)[nH]1` gave an inhibition of 0.935% (rep main protease; viral replication, Gluc reporter; SARS-CoV-2; 20 µM).
`O=C(NCCC[C@@H](NC(=O)c1cccc2cc(=O)[nH]cc12)c1ccccc1)c1cn[nH]c(=O)c1` gave an inhibition of 14.1% (rep main protease; enzyme activity, inhibitor; 5 µM, mean of runs).

For quick reference, copied from above:
With `Nc1ncnc2c1ncn2[C@@H]1O[C@H](C[C@@H](N)CC[C@H](N)C(=O)O)[C@@H](O)[C@H]1O` the Hill slope was 1.38 ± 0.05 (rep nsp14 N7-methyltransferase; N7-methyltransferase activity, inhibitor, Py-FLINT).
